# Measured values of several laboratories.
# Values joined by “and” are separate records of one study, mostly repeats; a detail may differ. pEC50: −log10 of the molar value.
# IDE: Insulin-degrading enzyme (IDE, Homo sapiens, UniProt P14735)
SMILES,target or system,assay,system,setting,scale,quantity,result
OC[C@H]1O[C@@H](c2ccc(Cl)c(Cc3ccc(O[C@H]4CCOC4)cc3)c2)[C@H](O)[C@@H](O)[C@@H]1O,,,"Japanese type 1 diabetes patients, blood","10 mg, day 28",reference: baseline,change in uric acid,-0.42 µmol/L
COc1ccnc(C(=O)N[C@@H](CO)C(=O)O)c1OCOC(=O)C(C)C,,,"Staffordshire loam sediment, aerobic dark",20 °C,,DT50 water,1.98 days
N#Cc1ccc2c(c1)[C@H]1CCCN(C(=O)c3ccc4[nH]cnc4c3)[C@H]1C2,,,human females,"360 mg, day 15",,SHBG level,34.7 nmol/L
Cc1cc(-c2nccc3c2ccn3CC(=O)Nc2ccc(-c3cnccn3)cn2)ccn1,,,human,"15 mg once daily, multiple ascending dose",,subjects with Erythema adverse event,11.1%
CCc1c(-c2ccccc2)c(-c2ccccc2)nn1-c1ccccc1-c1cccc(OCC(=O)O)c1,,,Sprague-Dawley rat,"oral, dose not given",,AUMC extrapolated observed,0.964% and 1.08% and 2.05%
C[C@@H](Nc1cc(F)cc(F)c1)c1cc(C(=O)N(C)C)cc2c(=O)cc(N3CCOCC3)oc12,,,advanced solid tumour patients,"oral, 30 mg twice daily, continuous monotherapy",,any dose reduction,25%
Cc1ccc(C(=O)N(CCCN)C(c2nc3snc(C)c3c(=O)n2Cc2ccccc2)C(C)C)cc1 (centres unmarked),,,human patients,"intravenous, 10 mg/day",,grade ≥3 fatigue patients,33%
CCN(CC)Cc1ccc2cc(COC(=O)Nc3ccc(C(=O)NO)cc3)ccc2c1,HBL-1,,,"1 µM, 120 h",,viability,0.334%
C[C@@H]1CCO[C@H]2Cn3cc(C(=O)NCc4ccc(F)cc4F)c(=O)c(O)c3C(=O)N12,,"population PK, post-hoc","children, 25 to <30 kg, plasma","oral, 25 mg film-coated tablet, steady state, geometric mean",,AUC(0-24),37700 ng·h/mL
C[C@@H](O)CCOC(=O)C[C@@H](C)O,,,human,"oral drink, dose not given, 90 min post dose, mean",,heart rate,75 beats/min
COc1ccccc1-c1ccc([C@H]2[C@@H](CO)N[C@@H]2CNC(=O)C2CCCC2)cc1,IDE,"enzyme activity, inhibitor, fluorogenic kinetic",,added: Mca-RPPGFSAFK(Dnp)-OH substrate,,pEC50,5.29
CCCCCCCCCCCCCCCc1cccc(O)c1C(=O)O,HBL-1,,,"0.1 µM, 120 h",,viability,129%
O=C(OC(C(F)(F)F)C(F)(F)F)N1CCN(Cc2cccc(Oc3ccccc3)c2)CC1,,PET blocking study,"rhesus monkey, brain THA","0.1 mg/kg, compound pretreatment, added: [18F]T-401 tracer",,k2,0.074 min⁻¹
COc1cc(N2CCC(N3CCN(C)CC3)CC2)ccc1Nc1ncc(Cl)c(Nc2ccccc2P(C)(C)=O)n1,,,"nude mice, NCI-H3122 xenograft","intraperitoneal, 10 mg/kg every other day, day 13",,body weight,22.1 g and 23.8 g and 24.8 g and 23.6 g and 25 g
C[C@H]1Oc2cc(cnc2N)-c2c(nn(C)c2C#N)CN(C)C(=O)c2ccc(F)cc21,,population PK,"normal renal function, plasma","oral, 100 mg, mean, single dose",,clearance,164 mL/min
CC(C)c1ncc(C(=O)N2CCOC3(CCN(Cc4ccc(F)c(CCNC[C@H](O)c5ccc(O)c6[nH]c(=O)sc56)c4)CC3)C2)s1,,equilibrium dialysis,"rat, plasma",,,fraction unbound,0.098
Cn1cc(-c2cn3nccc3c(-c3cnn([C@]4(CC#N)C[C@@H](C#N)C4)c3)n2)cn1,,,"healthy humans fasted, plasma","400 mg single dose, geometric mean",,apparent clearance CL/F,131 L/h
Cc1cc(NC2CCN(C(=O)OC3CCN(C(=O)/C=C/CN(C)C)C3)CC2)n2ncc(C(C)C)c2n1 (centres unmarked),,"Phase I dose escalation CTCAE v4.0, item: Asthenia",patients with advanced solid tumours,"dose not given, TIW dosing any grade",,patients with adverse event,46%
O=C(c1ccncc1)N1C[C@@H]2N[C@H](C1)[C@H]2c1ccc(/C=C/c2ccccc2)cc1,IDE,"enzyme activity, inhibitor, fluorogenic kinetic",,added: Mca-RPPGFSAFK(Dnp)-OH substrate,,pEC50,5.06
O=C(O)CCC(=O)O.[2H]C([2H])([2H])Oc1cc(C)c2[nH]ccc2c1CN1CC[C@@H](C2CC2)C[C@H]1c1ccc(C(=O)O)cc1,,multiple ascending dose,healthy Chinese subjects,200 mg once daily,,subjects with elevated triglycerides TEAE,25%
C=CCN1CC(=O)N2[C@@H](Cc3ccc(O)cc3F)C(=O)N(Cc3cccc(N4CC(N5CCN(CC)CC5)C4)n3)C[C@@H]2N1C(=O)NCc1ccccc1,,,advanced solid tumour patients,"oral, 10 mg twice daily, grade ≥3, dose-escalation",,any treatment-related adverse event,0%
Cc1ccc(-c2cc(C(F)(F)F)nn2-c2ccc(S(N)(=O)=O)cc2)cc1,,,"rat, stomach","concentration not given, 4 h",reference: normal control,ulcer preventive index,73%
O=C1CC[C@H](N2Cc3cc(N4CCN(CC5CCN(c6ccc([C@@H]7c8ccc(O)cc8CC[C@@H]7c7ccccc7)cc6)CC5)CC4)ccc3C2=O)C(=O)N1,,item: Nausea,human,"oral, 200 mg, added: dabigatran etexilate 75 mg",,participants with adverse event,0%
